Results collected from several papers.
A part holds a random share of what one study measured.

Block 1
Target: Ras GTPase-activating protein-binding protein 1, RRM domain (G3BP1, Homo sapiens, UniProt Q13283)
Sequence of UniProt Q13283 (whole entry, looked up): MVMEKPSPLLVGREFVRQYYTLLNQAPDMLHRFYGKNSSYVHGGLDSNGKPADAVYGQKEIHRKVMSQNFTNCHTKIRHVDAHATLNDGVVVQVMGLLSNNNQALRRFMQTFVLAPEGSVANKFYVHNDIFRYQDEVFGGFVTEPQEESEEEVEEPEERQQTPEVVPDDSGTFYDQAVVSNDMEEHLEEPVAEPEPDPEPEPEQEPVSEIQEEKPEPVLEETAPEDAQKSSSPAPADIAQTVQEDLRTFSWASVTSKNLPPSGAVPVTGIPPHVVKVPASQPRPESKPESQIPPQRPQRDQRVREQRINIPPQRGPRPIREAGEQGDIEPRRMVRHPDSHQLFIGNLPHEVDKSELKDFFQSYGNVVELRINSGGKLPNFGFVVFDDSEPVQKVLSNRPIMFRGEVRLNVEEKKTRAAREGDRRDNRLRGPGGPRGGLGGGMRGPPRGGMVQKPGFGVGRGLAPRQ
Method: RNA Bind-n-Seq
Form: RNA
Matrix: in vitro
Tested at: 1 µM
Notes: whole 134-nt RNA, ends assumed
Added: 150 mM KCl
Relative to: input library
Direction: higher = stronger binding
Shared flanks, not repeated: GGGAGUUCUACAGUCCGACGAUC … UGGAAUUCUCGGGUGUCAAGG
| Strand | log2 enrichment |
| --- | --- |
| AGUCCUGUGCUACACAUCGUAUGUACCGAAUCGGCCCCCGGCCCCCGGGCCCCCGGGGAAAGUAUUAUGUUACGCCGUUCGGAUCUGCAC | -0.573 |
| AAGUCCUGUGCUACACAUCGUAUGUACCGAAUCGGGGCCCCGGCCCCGGGCCCCGGGAAAGUAUUAUGUUACGCCGUUCGGAUCUGCACU | -0.91 |
| CCCAGACAACACGCACCCACACAGACACAGAGGGAAGGGGUUGGGAUGGGGACAGGGUGCACAGCAGGGCGGGGUAGGACCCCAGCCCCU | -0.0361 |
| CAAGUCCUGUGCUACACAUCGUAUGUACCGAAUCGGGGCCCGGCCCGGGCCCGGGAAAGUAUUAUGUUACGCCGUUCGGAUCUGCACUUC | -0.592 |
| UAACUUUAGAGGAGGAUCUGAUGGAUAUGGCAGUGGACGUGGAUUUGGGGAUGGCUAUAAUGGGUAUGGAGGAGGACCUGGAGGUAGCAA | -0.401 |
| CUGUGCUACACAUCGUAUGUACCGAAUCGGGGUUUUUUUGGGGUUUGGGGUUUUUUUGGGGAAAGUAUUAUGUUACGCCGUUCGGAUCUG | 0.739 |
| GUCCUGUGCUACACAUCGUAUGUACCGAAUCGGGGAAAGGGGAGGGGAAAAAAAGGGGAAAGUAUUAUGUUACGCCGUUCGGAUCUGCAC | 0.775 |
| ACCAUGCAGGUGGGCAUCUUUGGGAAGUGGGGCAAGGGGGGGAUAGGGAGAAAGGUAACACUUUGGGAACAGGUGGUCCCAGGUCGUUUC | -0.342 |
| CUCAAGUCCUGUGCUACACAUCGUAUGUACCGAAUCGGCCGGGCCGGGCCGGGGAAAGUAUUAUGUUACGCCGUUCGGAUCUGCACUUCC | -0.719 |

Block 2
Target: RNA binding protein fox-1 homolog 2, RRM domain, GST-SBP tag (RBFOX2, Homo sapiens, UniProt O43251-10, residues 100-194)
Method: RNA Bind-n-Seq
Form: RNA
Matrix: in vitro
Tested at: 365 nM
Notes: natural RNA segment, single round, ends assumed
Relative to: no-protein control
Direction: higher = stronger binding
Shared flanks, not repeated: GGGAGUUCUACAGUCCGACGAUC … UGGAAUUCUCGGGUGCCAA
Target sequence (chain): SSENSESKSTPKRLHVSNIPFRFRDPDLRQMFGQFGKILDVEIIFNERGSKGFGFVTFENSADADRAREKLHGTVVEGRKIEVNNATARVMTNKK
| Strand | RBNS enrichment (R) |
| --- | --- |
| UGUUCUGGGGUGAGCGGGGAGCGCAUGCAGAGAUCCCAAGGCCUAUGUCUGGAGGGUACCAACUCCUCCAGCCUAGACCCCUGGCUUUGUCCAACACCAGCCCUGACCCA | 1.31 |
| AAAGCCCUCCUGACAAGCCUUUUGCCUACAGGUUUACCUGAAAAUGAGCUACAUAUGGUCGUCAUUUUCUUCAAACUCUCAAAAUAGGAAAGUGGAAAUUUUUCUCCCCU | 0.33 |
| UGGUACAUGGUAGGUGUUGUGAUGGAAAUGGAAAGCAUUGGUUAAAUGGAAUAGAGGUCUUGAUCUUUGGAAUGCAUGCCGGUAAUGUAUUUUACAGUACAUGUUAAUAA | 5.4 |
| UCUGCUGCAGGACGCAGAAAGGAUGUAGGGGAGAGACUGCCUGUGCACCUAACCAACACCUCCAGGGGCUCGCUAAGGAGCCCCCCUCCACCCCCUGAAUGGGUGUGGCU | 0.435 |
| ACUCUCUUCUCCUCAGACACAGUGGCACUGCUUAUCUCCAAAUGGUGUGAUCGUCUCCUCAGUGAGCGGCGGCUCCCACUGCGCUGUGGGUAGUGUGUGACUGUGGCUGU | 0.431 |
| UAUUGUGUGAUACUUGAAAAGAUAAAAGGGACUGCCAGCCCCUAACUGAAAUCUGAAGCUUUUUAUCGCUUAUUUUUCCUCGCCCUGUCUCCUCCCUUCCACCUUUCUCC | 0.401 |
| UGUCAGAUGACUUGCACUUCUUAAAGAGAUUGCUUUAUAACACUAAGACAUCCUUUCUAAAGAUUCAAGUGGACUUGACUAAGCUGAGGGUCCACGAAAUAGAAUAUGAC | 0.261 |
| AGGAAAAAAAAUUGAAUCUUGGUCAACAUUUAAACCAAAGUAAAAGGGGAAAAACCAAAGUUAUUUGUUUUGCAUGGCUAAGCCAUUCUGUUAUCUCUGUAAAUACUGUG | 0.652 |

Block 3
Target: Prothrombin, mature alpha-thrombin (F2, Homo sapiens, UniProt P00734)
Method: aptamer microarray, sandwich
Form: DNA with 2'F-ANA
Matrix: in vitro
Tested at: 200 nM
Notes: whole 15-mer aptamer, many near background
Added: Cy3 exosite-II aptamer, 400 nM
Direction: higher = stronger binding
Strand: GGTTGGTGTGGTTGG
| Modification | mean fluorescence intensity |
| --- | --- |
| 2'F-ANA at 1 2 5 7 9 11 12 13 | 80.9 a.u. |
| 2'F-ANA at 4 5 6 9 12 15 | 128 a.u. |
| 2'F-ANA at 1 5 6 8 9 11 13 | 57.9 a.u. |
| 2'F-ANA at 1 2 7 9 10 12 13 15 | 85.1 a.u. |
| 2'F-ANA at 1 3 5 6 7 8 9 10 11 12 13 14 15 | 57.7 a.u. |
| 2'F-ANA at 1 7 9 10 12 15 | 73.7 a.u. |
| 2'F-ANA at 1 2 4 8 10 11 12 13 14 | 45.7 a.u. |
| 2'F-ANA at 1 3 4 7 9 10 12 | 87 a.u. |
| 2'F-ANA at 1 2 5 6 9 10 11 12 13 | 49.4 a.u. |
| 2'F-ANA at 1 2 3 8 10 11 12 13 14 | 94 a.u. |
| 2'F-ANA at 3 6 7 8 9 11 12 14 15 | 436 a.u. |
| 2'F-ANA at 1 2 3 7 9 12 14 15 | 89.3 a.u. |
| 2'F-ANA at 1 2 4 5 6 7 8 9 11 12 14 | 48.5 a.u. |
| 2'F-ANA at 1 2 4 5 6 9 11 13 | 62.2 a.u. |
| 2'F-ANA at 1 4 5 7 12 13 14 | 44.8 a.u. |
| 2'F-ANA at 1 3 5 6 7 14 | 46.6 a.u. |
| 2'F-ANA at 1 2 6 7 8 10 13 15 | 51 a.u. |
| 2'F-ANA at 2 6 8 10 12 13 | 137 a.u. |
| 2'F-ANA at 1 4 6 7 10 13 14 15 | 55.6 a.u. |
| 2'F-ANA at 2 5 7 8 9 10 13 | 63.7 a.u. |
| 2'F-ANA at 3 6 7 10 11 14 | 384 a.u. |
| 2'F-ANA at 3 4 7 8 9 11 12 13 | 784 a.u. |

Block 4
Target: Sal-like protein 4, full length isoform B (SALL4, Homo sapiens, UniProt Q9UJQ4-2, residues 1-616)
Method: universal PBM
Form: double-stranded DNA, one strand shown
Matrix: in vitro
Tested at: not given
Notes: 8-mer, flanks averaged, mean of replicates
Direction: higher = stronger binding
Construct (chain): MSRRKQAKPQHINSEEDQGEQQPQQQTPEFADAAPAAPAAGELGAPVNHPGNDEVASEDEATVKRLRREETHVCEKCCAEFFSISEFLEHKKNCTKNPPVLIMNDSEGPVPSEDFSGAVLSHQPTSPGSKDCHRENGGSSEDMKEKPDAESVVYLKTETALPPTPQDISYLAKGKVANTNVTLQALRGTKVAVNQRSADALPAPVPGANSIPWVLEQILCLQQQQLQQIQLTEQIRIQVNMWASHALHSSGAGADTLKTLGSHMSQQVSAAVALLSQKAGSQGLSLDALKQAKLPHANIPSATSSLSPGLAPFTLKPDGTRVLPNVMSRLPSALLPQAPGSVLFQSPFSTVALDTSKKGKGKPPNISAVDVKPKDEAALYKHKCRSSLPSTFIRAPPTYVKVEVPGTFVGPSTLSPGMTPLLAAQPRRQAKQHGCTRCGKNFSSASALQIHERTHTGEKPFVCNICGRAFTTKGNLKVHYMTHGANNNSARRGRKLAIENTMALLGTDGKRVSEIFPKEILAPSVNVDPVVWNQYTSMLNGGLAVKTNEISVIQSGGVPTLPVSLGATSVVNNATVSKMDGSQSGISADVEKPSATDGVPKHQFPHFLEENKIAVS
| Strand | E-score |
| --- | --- |
| AAAGTCCT | -0.15 |
| CCACGAGA | -0.337 |
| CCCCGGCA | -0.266 |
| AACTGCGC | -0.135 |
| ACTGTTTG | 0.106 |
| CGTAAAAA | 0.274 |
| CACTAGGA | -0.143 |
| AATGTGAT | 0.193 |
| CTCGTATA | 0.123 |
| CCGATGCG | -0.294 |
| CCACTTAC | -0.0401 |
| AGAGCTTA | 0.0268 |
| CTGTGTAC | 0.0494 |
| ATGTGTGC | -0.0126 |
| TGCCGGCA | -0.0818 |
| CCCCTTAC | -0.1 |
| TAAGTTCA | 0.137 |
| ATGCCTAA | 0.12 |
| GAAAGAGA | -0.057 |
| CTCTGAAG | -0.209 |
| ACTACTAA | 0.183 |
| CTGTACTC | -0.0002 |
| ATTAACTG | 0.334 |
| CGGTTCGC | -0.273 |
